Published values gathered from unrelated publications.
Every numbered part comes from another study and shows a few of its results, in no order. Changes are numbered by the printed parent chain.

Study 1 — method: protein-binding microarray; molecule type: double-stranded DNA, one strand shown; medium: in vitro; concentration: 250 nM; setting: 60-bp whole probe; added: salmon DNA 0.4 mg/ml; reference: random background probes; reading: higher = stronger binding; quantity: log fluorescence; constant ends, left off below: GCCTAGCAC … GTCTTGATTCGCTTGACGCTGCTG
Target: Interferon regulatory factor 5, full length, phosphomimetic (IRF5, Homo sapiens, UniProt Q13568-2, residues 1-514, K96S/S451D/S453D/S456D/S462D)
TCAAGTTTCTCCTTTGTACTGTGCTAG: 2.13 z-score
GACGAACTGGGTTTTCGAGACGTGCTA: 0.518 z-score
TCACCTGTACATCTATGACTGTGCTAG: 0.103 z-score
CACCCCGCCCCTCCTTGGCCGTGCTAG: -0.365 z-score
GCAGACTACCTATGAGTATCGTGCTAG: 0.0934 z-score
TTCGGACTGGGTCTCGGTTAGTGCTAG: 0.124 z-score
GACGATCTCAGTATCGAGCCGTGCTAG: 1.15 z-score
TTAGGTTTCGGGACTGGGTTGGTGCTA: 5.84 z-score
GACGGTTTCGGAACTGGGGACGTGCTA: 5.01 z-score
TCACATTTTAGTTTTCAACTGTGCTAG: 1.35 z-score

Study 2 — method: RNA Bind-n-Seq; molecule type: RNA; medium: in vitro; concentration: not given; reference: input RNA pool; reading: higher = stronger binding; quantity: bound/input enrichment
Target: RING finger protein unkempt homolog, zinc fingers 1-6, GST-SBP tag (UNK, Homo sapiens, UniProt Q9C0B0, residues 30-357)
Setting: RNA with constant flanks, human-mouse chimeric sites, ends assumed
Construct (chain): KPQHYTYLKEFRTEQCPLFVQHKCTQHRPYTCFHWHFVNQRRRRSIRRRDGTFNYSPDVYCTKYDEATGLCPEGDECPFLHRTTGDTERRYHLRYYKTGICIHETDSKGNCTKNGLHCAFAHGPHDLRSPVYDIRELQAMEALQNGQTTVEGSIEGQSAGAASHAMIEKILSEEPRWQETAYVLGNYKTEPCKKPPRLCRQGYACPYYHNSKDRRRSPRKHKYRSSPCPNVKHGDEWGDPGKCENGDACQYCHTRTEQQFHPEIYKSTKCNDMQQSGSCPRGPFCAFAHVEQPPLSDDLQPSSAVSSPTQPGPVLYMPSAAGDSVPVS
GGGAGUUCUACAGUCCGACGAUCAGCACAACACCAGCUAAGCUAAGAAAUCCUUGUACAAGUGAACAAAACUGCACCAGCCCAUUUAGCUACAAAAAUGUGCUUAGUCUUACUGACAGAGGAGAGUUUUUUAAUGAACUUGUUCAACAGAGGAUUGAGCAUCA: 1.54 ratio
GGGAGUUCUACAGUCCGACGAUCUUCAAAGAAAAGGGCAGCUGUGUCAUUUCAUAAGUAACUCUGGGGGAGGGAAAUUCUGUUCUUUUGUUUUUAGUUUUCCCAAAUGAAGCCAAAGUGUGUGUUGAAGAACUGAGAAAAAAUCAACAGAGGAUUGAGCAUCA: 0.192 ratio
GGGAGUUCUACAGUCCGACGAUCAUUCCGAUUAUGGACACCGGUGAAAACCCAGAGGUGCCCUUCCCCCGGGACAUGAUUGACUUAGAGGCCAAUUUUGAGAAGAUUGAAAAUGAACUGAAGGAAAUCAACACAAACCAGGAACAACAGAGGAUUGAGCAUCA: 0.0762 ratio
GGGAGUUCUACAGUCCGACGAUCAGAUUCCCUCUCUUAAAACCUCCUCCGAAGUUGGAGUCUCUUACAGAUGGUUCAUCUCCUGUUAGCGUUUUAGUUUGGACCACCCAGCCUUGGACAAUUCCCGCCAACCAGGCAAUUUGCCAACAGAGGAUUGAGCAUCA: 0.816 ratio
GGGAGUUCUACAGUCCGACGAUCCUUAAUGUUAAUAUUUUUGAAUAAAUGAAGCUAAAAUGUCUGCUUUUGGUACUACAUGCAUUAAUAAAAGGUUAAGUUUUGUUUUCCACUGAAGUACGUAAUACUUACUCAGAAAAAAACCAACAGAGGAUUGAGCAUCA: 0.346 ratio
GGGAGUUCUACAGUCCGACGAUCGGGACUGAUUCAUCCCAAGGACAGGCCACCCCAUUUGAUGCCUGGACUGAUGACAGUAUGGAAGGGCCUAGUCAAAAUUUUGAAGCUGAGUCAAUUCAGGAUGCCAUGAGUAUGGAAGAGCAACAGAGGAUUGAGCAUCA: 0.319 ratio

Study 3 — target: CCND2, cyclin fold, Cln2 fusion (human); method: yeast growth competition, sequencing; medium: yeast; setting: weak parent motif; reference: not given; reading: higher = stronger binding; quantity: normalised enrichment score
Parent: WEE1 docking peptide (human); HKTFRKLRLFDTP; partner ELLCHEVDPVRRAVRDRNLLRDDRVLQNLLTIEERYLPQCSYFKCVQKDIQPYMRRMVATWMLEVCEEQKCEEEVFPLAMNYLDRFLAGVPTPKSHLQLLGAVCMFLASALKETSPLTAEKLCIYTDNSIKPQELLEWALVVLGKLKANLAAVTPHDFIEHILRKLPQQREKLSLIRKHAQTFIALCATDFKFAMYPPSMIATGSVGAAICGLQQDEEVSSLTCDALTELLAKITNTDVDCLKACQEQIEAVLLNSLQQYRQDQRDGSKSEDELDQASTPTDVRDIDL
T12G: 0.548
T3N: -0.46
P13F: -0.0171
K6Q: 0.305
R5H: 0.762
K6A: 0.129
R5E: 0.686
K2V: -0.28
K6S: 0.161
P13W: -0.164
F10H: 0.167
K6I: 0.0918
R8E: 0.39

Mixed results
PhoQ, residues 284 288 289 292 302 303 AGGCYF — fold induction (PhoP, residues 12 14 15 18 19 TPLRH (Escherichia coli, UniProt P23836); Sort-seq, refers to: YFP reporter; E. coli; PhoQ-PhoP variant library, added: 10 µM Mg2+; reference: high Mg2+ state, higher = stronger signaling): 3.45
